Experimental data from different studies.
Every numbered part comes from another study and shows a few of its results, in no order.
Sequence of UniProt P49760 (whole entry, looked up): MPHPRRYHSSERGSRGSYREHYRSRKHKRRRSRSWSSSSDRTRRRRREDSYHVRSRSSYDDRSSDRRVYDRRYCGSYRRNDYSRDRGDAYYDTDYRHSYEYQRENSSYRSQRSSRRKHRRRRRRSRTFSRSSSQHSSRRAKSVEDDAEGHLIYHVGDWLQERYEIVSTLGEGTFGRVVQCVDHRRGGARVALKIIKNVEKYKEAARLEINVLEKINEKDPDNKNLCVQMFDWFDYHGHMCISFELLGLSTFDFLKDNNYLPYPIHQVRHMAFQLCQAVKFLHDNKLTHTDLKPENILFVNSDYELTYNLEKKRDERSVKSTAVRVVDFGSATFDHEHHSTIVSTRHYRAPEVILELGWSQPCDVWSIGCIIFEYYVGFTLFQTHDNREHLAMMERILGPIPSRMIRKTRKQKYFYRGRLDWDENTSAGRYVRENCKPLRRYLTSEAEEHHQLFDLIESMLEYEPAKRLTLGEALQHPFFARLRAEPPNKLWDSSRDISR
Sequence of UniProt P42680 (whole entry, looked up): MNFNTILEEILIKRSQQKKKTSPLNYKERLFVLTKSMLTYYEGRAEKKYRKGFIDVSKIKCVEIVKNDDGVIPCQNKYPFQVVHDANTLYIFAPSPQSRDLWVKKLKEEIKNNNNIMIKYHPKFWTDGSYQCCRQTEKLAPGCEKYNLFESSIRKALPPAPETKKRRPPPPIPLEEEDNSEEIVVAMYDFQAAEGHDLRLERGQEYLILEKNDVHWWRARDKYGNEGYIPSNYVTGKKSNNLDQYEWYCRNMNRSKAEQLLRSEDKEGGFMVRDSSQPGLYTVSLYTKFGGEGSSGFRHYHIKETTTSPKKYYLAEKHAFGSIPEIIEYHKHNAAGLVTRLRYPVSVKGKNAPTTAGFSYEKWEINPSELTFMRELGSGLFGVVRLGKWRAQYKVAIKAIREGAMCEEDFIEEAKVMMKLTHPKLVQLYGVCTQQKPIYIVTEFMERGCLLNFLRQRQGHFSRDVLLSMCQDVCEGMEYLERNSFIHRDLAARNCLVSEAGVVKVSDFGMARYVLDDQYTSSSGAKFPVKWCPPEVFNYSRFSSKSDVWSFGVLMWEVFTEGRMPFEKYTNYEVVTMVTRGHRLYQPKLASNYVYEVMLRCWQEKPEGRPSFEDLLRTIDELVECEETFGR
Sequence of UniProt Q04759 (whole entry, looked up): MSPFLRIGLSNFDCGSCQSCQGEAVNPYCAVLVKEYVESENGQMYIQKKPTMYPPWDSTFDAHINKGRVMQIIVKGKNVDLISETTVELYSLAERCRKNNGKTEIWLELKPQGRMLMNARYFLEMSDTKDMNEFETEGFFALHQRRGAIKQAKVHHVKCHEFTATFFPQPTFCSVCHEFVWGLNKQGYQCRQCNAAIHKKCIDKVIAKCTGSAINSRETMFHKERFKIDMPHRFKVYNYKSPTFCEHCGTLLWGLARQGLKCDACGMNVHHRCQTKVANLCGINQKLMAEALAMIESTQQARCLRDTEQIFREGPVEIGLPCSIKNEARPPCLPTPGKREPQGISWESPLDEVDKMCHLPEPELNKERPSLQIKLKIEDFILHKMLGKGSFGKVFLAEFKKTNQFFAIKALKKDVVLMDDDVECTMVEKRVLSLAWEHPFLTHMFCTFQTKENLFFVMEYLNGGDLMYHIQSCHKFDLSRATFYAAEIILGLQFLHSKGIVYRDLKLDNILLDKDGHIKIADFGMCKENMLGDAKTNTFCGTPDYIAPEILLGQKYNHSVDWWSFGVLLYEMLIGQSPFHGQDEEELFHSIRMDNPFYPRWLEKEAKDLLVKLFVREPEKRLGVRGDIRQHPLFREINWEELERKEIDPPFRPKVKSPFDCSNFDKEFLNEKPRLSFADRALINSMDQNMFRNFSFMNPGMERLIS
Sequence of UniProt Q9NQU5 (whole entry, looked up): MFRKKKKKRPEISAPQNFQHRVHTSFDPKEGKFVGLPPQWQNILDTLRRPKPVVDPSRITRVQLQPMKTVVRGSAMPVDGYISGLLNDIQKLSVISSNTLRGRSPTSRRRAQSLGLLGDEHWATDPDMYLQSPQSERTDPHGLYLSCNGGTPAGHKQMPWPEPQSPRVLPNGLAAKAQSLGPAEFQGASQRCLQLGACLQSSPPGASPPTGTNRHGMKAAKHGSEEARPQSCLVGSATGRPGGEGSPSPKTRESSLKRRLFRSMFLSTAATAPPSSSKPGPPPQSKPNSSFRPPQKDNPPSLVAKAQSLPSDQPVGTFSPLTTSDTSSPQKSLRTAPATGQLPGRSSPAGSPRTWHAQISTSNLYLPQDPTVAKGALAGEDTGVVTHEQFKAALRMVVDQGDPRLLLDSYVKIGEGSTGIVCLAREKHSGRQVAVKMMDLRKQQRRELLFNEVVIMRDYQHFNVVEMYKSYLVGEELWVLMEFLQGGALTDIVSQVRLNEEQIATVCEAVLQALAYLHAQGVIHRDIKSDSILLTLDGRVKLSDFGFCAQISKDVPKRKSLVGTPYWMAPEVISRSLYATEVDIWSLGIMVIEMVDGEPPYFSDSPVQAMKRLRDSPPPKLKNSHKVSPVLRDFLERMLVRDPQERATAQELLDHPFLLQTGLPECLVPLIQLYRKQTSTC

Study 1
Organism: Plasmodium berghei
Mode: inhibitor
Cells: Huh-7
Strain: GFP-expressing, liver stage
Tested at: 10 µM
Time: 24 h
Relative to: untreated control
SMILES | infection rate
COc1ccc(C(CN(C)C)C2(O)CCCCC2)cc1 (stereo not shown) | 101%
Oc1cc(Cl)ccc1Oc1ccc(Cl)cc1Cl | 22.1%
c1ccc2nc(N3CCNCC3)ccc2c1 | 69.8%
OC1CCCCC1N1CCC(c2ccccc2)CC1 (stereo not shown) | 90.9%
COP(=S)(OC)Oc1ccc(Sc2ccc(OP(=S)(OC)OC)cc2)cc1 | 93.8%

Study 2
SMILES: COc1ccc2c(c1)/C(=C/c1cnc[nH]1)C(=O)N2
Read-out: enzyme activity
Mode: inhibitor
Tested at: 0.5 µM
Relative to: control
target | remaining activity
TEC (Homo sapiens, UniProt P42680) | 91.6%
PRKCZ (Homo sapiens, UniProt Q05513) | 107%
MAP3K20 (Homo sapiens, UniProt Q9NYL2) | 91.4%
PAK6 (Homo sapiens, UniProt Q9NQU5) | 101%
FLT1 (Homo sapiens, UniProt P17948) | 73.9%
CLK1 (Homo sapiens, UniProt P49759) | 87.3%
TYRO3 (Homo sapiens, UniProt Q06418) | 99.2%
PAK1 (Homo sapiens, UniProt Q13153) | 97.8%
CSNK1E (Homo sapiens, UniProt P49674) | 80%
CSNK1D (Homo sapiens, UniProt P48730) | 93.6%
CAMK1 (Homo sapiens, UniProt Q14012) | 103%
CLK2 (Homo sapiens, UniProt P49760) | 80.6%
EPHA6 (Homo sapiens, UniProt Q9UF33) | 91.3%
SRPK1 (Homo sapiens, UniProt Q96SB4) | 98%
JAK1 (Homo sapiens, UniProt P23458) | 83.8%
CAMKK1 (Homo sapiens, UniProt Q8N5S9) | 91.3%
IGF1R (Homo sapiens, UniProt P08069) | 94.4%
PRKCQ (Homo sapiens, UniProt Q04759) | 109%
MUSK (Homo sapiens, UniProt O15146) | 78.3%
EPHA2 (Homo sapiens, UniProt P29317) | 98.4%
SIK2 (Homo sapiens, UniProt Q9H0K1) | 100%
SGK2 (Homo sapiens, UniProt Q9HBY8) | 71.4%

Study 3
Organism: Sarcocystis neurona
Read-out: parasite growth
Tested at: 10 µM
Time: 96 h
Setting: first screen
Relative to: untreated
SMILES | log2 fold change
CN1C(=O)CN=C(c2ccccc2)c2cc([N+](=O)[O-])ccc21 | -0.03
NC(=O)C[S+]([O-])C(c1ccccc1)c1ccccc1 (stereo not shown) | 0.2
CNC1CC(c2ccc(Cl)c(Cl)c2)c2ccccc21 (stereo not shown) | -0.54
COc1ccc(C(CN(C)C)C2(O)CCCCC2)cc1 (stereo not shown) | -0.18
C[C@]12C/C(=C/O)C(=O)C[C@@H]1CC[C@@H]1[C@@H]2CC[C@@]2(C)[C@H]1CC[C@]2(C)O | -0.16
CNCC(O)c1ccc(O)cc1 (stereo not shown) | 0.19
Cc1nnc2n1-c1ccc(Cl)cc1C(c1ccccc1)=NC2 | -0.0645

Study 4
Cell line: mouse MPNST tumor cells
Technique: high-content nuclear imaging
Refers to: cell number
Tested at: 10 µM
Time: 12 h
Setting: mean of 2 replicates
Relative to: plate mean
Reading: higher = more cells
Compound | nuclei count [z-score]
COc1ccc(CN2CCNCC2)c(OC)c1OC | 0.82
O=C(NCCN1CCC2(CC1)C(=O)NCN2c1cccc(F)c1)c1ccc2ccccc2c1 | -6.02
O=C(Oc1ccc([N+](=O)[O-])cc1)N1CCC(C(O)(c2ccc3c(c2)OCO3)c2ccc3c(c2)OCO3)CC1 | 1.26
O=C(Oc1ccc([N+](=O)[O-])cc1)N1CCN(Cc2cccc(Oc3ccccc3)c2)CC1 | 1.1
C[C@@H]1CN([C@H]2CC[C@](C#N)(c3ccc(F)cc3)CC2)CC[C@]1(C(=O)O)c1ccccc1 | 0.193

Study 5
Target: DNA polymerase theta, ATPase domain (POLQ, Homo sapiens, UniProt O75417)
Sequence of UniProt O75417 (whole entry, unmodified, looked up): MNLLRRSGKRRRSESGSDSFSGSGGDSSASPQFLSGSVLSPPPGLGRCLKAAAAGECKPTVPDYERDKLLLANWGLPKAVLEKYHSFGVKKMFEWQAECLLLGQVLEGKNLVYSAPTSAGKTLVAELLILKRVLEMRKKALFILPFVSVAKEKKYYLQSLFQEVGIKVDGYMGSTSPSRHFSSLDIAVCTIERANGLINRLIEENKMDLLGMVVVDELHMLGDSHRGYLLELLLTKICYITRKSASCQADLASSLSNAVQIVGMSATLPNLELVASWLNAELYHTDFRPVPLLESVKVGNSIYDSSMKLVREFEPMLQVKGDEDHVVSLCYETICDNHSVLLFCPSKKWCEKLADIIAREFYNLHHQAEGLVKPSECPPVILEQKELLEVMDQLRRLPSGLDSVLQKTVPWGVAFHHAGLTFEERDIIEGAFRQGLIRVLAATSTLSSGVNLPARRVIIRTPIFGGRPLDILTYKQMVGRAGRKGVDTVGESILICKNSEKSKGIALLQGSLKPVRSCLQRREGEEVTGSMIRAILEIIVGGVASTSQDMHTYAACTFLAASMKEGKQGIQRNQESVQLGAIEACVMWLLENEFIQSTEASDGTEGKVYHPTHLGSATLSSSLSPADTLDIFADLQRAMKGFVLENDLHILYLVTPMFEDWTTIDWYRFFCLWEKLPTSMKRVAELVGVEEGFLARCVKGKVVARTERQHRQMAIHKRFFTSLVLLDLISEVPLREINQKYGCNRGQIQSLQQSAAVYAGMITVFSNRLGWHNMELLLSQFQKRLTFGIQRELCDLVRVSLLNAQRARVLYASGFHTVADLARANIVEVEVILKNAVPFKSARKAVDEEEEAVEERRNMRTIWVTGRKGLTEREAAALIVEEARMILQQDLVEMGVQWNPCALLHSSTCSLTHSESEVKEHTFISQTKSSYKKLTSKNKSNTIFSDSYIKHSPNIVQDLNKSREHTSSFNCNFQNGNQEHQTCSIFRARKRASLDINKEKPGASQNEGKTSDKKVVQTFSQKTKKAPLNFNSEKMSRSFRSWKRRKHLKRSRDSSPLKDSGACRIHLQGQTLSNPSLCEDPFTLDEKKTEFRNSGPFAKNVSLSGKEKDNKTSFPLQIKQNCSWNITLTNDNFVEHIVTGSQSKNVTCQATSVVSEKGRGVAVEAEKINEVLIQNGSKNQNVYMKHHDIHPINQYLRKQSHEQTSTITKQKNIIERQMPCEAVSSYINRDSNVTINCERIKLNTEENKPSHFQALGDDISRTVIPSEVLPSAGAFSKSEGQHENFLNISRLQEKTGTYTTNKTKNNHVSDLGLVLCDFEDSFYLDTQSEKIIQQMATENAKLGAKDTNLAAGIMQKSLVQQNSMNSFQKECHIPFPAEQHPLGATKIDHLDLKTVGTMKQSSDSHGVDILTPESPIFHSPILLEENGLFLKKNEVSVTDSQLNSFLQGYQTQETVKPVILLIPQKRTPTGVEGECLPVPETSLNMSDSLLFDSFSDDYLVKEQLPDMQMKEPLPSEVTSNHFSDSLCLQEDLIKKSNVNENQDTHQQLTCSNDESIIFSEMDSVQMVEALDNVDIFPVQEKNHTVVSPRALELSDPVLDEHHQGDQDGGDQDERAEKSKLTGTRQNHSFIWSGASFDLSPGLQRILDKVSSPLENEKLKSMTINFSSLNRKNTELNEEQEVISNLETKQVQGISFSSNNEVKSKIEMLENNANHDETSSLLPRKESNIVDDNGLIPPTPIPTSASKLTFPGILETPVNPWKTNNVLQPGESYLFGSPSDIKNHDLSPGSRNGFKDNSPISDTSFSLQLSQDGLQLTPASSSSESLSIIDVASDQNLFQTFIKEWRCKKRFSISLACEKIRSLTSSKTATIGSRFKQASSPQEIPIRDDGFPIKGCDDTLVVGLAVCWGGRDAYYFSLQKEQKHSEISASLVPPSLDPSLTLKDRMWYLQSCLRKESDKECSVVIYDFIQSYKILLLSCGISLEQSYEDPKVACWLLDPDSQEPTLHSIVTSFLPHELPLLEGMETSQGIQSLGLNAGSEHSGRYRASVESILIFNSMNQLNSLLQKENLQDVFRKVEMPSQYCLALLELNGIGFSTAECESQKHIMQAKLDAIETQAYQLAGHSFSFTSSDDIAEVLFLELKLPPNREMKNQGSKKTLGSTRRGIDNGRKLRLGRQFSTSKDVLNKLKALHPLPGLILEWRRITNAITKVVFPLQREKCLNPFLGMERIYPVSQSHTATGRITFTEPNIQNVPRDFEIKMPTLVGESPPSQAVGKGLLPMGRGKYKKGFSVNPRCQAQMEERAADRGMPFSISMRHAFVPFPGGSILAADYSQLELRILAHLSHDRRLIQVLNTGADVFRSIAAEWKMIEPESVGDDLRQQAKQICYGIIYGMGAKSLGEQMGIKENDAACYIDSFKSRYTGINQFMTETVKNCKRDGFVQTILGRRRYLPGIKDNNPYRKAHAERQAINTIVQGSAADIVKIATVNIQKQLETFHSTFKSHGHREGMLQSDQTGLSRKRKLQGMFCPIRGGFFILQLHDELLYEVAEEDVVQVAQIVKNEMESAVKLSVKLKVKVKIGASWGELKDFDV
Read-out: enzyme activity
Mode: inhibitor
Tested at: 77 µM
Relative to: untreated
SMILES | remaining activity [%]
C[C@@H]1O[C@@H](O[C@@H]2C=C3CC[C@@H]4[C@H](CC[C@]5(C)[C@@H](c6ccc(=O)oc6)CC[C@]45O)[C@@]3(C)CC2)[C@H](O)[C@H](O)[C@H]1O | 104
CCCCc1ccc(C(=O)O)nc1 | 99.8
CN1CCc2cccc(Cl)c2CC1 | 110

Further values, each from its own experiment
SMILES | target | read-out | technique | tested at | endpoint | value
COc1ccc2cc(OCC3(C(=O)O)CN(C(=O)c4ccc(F)cc4)C3)ccc2c1 | CDPK1 (Plasmodium falciparum, UniProt P62344) | cell-free assay | competition with immobilised ligand | 1 µM | remaining binding | 100%
O=C(NC[C@@H]1[C@H]2CN(C(=O)OCc3cc(C(F)(F)F)cc(C(F)(F)F)c3)C[C@@H]12)c1ccc2[nH]nnc2c1 | HTR2A (Homo sapiens, UniProt P28223) | cell-free assay |  | 10 µM | inhibition | 51.4%
O=C(Nc1cnc(Oc2ccc(F)cc2)nc1)N1CCc2ncccc2[C@@H]1c1ccc(F)cc1 | pknB (Mycobacterium tuberculosis, UniProt P9WI81) | cell-free assay | competition with immobilised ligand | 1 µM | remaining binding | 90%
CNC(=O)c1cc(C(=O)NC2CC2)cn(Cc2ccccc2)c1=O | HRH2 (Homo sapiens, UniProt P25021) | binding | radioligand binding | 10 µM | inhibition | -9.14%

Repeated from above (study 3):
SMILES | log2 fold change
NC(=O)C[S+]([O-])C(c1ccccc1)c1ccccc1 (stereo not shown) | 0.2
CNC1CC(c2ccc(Cl)c(Cl)c2)c2ccccc21 (stereo not shown) | -0.54
COc1ccc(C(CN(C)C)C2(O)CCCCC2)cc1 (stereo not shown) | -0.18
